Results from different studies.
Numbered parts are unrelated; each lists some results of a single study.
Chain of UniProt P11362 (whole entry, looked up): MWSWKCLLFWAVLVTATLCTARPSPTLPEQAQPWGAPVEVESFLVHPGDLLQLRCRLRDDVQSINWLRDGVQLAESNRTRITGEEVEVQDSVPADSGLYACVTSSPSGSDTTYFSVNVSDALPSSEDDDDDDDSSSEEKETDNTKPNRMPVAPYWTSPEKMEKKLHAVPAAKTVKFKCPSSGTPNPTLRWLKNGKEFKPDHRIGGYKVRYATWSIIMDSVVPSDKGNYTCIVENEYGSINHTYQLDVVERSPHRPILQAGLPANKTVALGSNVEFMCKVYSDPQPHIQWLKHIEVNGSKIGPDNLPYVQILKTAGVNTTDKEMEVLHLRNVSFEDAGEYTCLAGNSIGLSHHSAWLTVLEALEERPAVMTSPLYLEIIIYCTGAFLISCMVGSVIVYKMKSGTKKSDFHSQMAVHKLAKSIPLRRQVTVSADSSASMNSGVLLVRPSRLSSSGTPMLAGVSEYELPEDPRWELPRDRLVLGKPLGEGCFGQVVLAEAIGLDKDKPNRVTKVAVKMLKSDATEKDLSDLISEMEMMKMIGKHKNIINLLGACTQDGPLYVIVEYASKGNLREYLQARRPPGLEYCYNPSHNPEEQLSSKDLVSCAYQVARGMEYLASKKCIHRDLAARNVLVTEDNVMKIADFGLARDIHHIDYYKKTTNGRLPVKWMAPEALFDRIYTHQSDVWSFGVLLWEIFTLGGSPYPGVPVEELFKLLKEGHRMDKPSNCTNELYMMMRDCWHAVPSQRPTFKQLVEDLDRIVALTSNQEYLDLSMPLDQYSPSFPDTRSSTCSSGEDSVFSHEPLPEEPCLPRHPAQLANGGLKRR
Chain of UniProt P30291 (whole entry, looked up): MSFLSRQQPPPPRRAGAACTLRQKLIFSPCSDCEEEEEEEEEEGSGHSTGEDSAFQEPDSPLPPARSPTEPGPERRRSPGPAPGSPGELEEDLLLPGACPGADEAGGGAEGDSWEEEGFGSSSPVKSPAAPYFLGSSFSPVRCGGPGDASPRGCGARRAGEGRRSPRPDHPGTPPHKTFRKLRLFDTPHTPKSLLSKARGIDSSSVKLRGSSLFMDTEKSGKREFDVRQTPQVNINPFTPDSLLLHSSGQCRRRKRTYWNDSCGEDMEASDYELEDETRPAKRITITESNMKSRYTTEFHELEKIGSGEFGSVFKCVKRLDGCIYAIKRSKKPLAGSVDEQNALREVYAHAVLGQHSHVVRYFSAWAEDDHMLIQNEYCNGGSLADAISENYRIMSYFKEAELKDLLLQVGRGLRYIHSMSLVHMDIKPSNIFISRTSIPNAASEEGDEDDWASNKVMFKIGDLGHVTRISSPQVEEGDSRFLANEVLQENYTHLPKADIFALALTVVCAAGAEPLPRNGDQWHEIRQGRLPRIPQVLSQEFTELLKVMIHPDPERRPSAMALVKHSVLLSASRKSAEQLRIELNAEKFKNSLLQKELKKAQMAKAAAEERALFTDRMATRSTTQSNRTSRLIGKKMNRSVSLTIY
Chain of UniProt Q13233 (whole entry, looked up): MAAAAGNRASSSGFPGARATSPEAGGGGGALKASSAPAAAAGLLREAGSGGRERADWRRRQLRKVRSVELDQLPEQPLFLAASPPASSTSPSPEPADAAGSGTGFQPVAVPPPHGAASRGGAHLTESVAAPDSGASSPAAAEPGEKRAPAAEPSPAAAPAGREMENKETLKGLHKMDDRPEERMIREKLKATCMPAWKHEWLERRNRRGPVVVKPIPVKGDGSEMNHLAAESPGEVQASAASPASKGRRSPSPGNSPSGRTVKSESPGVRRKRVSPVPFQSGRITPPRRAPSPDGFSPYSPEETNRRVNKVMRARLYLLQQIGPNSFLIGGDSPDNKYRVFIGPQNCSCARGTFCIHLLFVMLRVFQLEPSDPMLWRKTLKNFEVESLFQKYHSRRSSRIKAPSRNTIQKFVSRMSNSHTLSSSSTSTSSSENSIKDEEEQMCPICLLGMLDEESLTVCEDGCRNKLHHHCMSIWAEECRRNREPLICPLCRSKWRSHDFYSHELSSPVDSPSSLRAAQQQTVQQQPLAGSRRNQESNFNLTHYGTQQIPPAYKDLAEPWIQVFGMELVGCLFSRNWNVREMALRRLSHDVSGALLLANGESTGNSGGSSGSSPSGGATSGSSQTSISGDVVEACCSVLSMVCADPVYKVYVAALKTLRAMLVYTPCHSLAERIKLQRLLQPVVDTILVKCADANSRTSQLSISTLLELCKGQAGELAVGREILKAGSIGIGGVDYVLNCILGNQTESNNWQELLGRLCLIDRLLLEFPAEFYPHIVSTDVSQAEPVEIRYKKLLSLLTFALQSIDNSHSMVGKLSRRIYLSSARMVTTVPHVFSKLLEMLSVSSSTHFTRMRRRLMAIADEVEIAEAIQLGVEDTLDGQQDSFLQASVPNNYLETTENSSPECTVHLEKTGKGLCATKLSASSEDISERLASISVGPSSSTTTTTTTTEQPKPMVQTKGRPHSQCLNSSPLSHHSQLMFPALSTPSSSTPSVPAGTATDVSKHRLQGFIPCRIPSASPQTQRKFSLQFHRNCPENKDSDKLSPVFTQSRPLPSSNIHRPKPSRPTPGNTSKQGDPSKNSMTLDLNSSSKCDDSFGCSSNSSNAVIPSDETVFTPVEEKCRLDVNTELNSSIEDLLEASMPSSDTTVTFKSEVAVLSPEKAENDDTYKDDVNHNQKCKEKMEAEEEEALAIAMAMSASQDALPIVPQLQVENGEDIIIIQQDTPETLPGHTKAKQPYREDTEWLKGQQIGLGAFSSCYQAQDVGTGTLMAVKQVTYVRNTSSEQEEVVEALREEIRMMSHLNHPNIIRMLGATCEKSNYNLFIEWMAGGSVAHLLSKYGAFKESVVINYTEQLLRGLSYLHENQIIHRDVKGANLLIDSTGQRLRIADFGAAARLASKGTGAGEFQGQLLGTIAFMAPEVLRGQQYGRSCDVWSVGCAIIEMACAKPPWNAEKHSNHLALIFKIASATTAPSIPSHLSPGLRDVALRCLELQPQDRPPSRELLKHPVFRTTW
Chain of UniProt Q14680 (whole entry, looked up): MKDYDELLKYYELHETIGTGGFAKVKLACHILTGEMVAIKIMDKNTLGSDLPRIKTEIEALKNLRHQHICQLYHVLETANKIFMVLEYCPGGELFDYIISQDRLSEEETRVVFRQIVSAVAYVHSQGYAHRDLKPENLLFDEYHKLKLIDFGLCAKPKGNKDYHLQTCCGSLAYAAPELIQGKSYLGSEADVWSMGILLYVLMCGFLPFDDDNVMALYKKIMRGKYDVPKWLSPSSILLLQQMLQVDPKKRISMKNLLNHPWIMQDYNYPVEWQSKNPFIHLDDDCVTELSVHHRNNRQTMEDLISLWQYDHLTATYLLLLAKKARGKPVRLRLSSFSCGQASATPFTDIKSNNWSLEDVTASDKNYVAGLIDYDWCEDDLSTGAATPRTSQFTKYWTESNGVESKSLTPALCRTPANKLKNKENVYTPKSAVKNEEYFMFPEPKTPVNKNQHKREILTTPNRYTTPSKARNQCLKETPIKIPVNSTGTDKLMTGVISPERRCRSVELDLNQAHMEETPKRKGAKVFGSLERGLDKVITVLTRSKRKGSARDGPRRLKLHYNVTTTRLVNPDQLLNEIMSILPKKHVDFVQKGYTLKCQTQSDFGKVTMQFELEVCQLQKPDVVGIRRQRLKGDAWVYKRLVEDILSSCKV

Block 1 — observed: cell-free assay; technique: competition with immobilised ligand; concentration: 1 µM; endpoint: remaining binding
SMILES: Cc1c(NC(=O)c2cc(C(N)=O)nc3cc(F)ccc23)c(C(F)(F)F)nn1Cc1ccc(C(C)(C)C)cc1
target = FGFR1 (Homo sapiens, UniProt P11362); result = 93%
target = EGFR (Homo sapiens, UniProt P00533, T790M); result = 100%
target = EGFR (Homo sapiens, UniProt P00533, del747-750/T751S); result = 77%
target = MAP3K1 (Homo sapiens, UniProt Q13233); result = 100%
target = WEE1 (Homo sapiens, UniProt P30291); result = 100%
target = MELK (Homo sapiens, UniProt Q14680); result = 100%

Block 2 — observed: enzyme activity; action: inhibitor; concentration: 0.5 µM; relative to: control; endpoint: remaining activity
Target: Mitogen-activated protein kinase 10 (MAPK10, Homo sapiens, UniProt P53779)
Chain of UniProt P53779 (whole entry, looked up): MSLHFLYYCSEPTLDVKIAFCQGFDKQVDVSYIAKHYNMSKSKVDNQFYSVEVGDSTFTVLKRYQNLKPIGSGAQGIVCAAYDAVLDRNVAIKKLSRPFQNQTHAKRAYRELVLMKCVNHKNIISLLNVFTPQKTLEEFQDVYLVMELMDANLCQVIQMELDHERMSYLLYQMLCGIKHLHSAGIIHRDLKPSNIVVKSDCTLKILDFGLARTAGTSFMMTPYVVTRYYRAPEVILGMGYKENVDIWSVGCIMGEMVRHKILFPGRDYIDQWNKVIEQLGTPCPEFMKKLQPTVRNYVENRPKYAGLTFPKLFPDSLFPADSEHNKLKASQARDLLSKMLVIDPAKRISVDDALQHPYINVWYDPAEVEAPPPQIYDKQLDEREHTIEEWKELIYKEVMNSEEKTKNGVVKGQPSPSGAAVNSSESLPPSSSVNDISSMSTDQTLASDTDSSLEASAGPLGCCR
Compound = O=c1cc(N2CCOCC2)oc2c(-c3ccccc3)cccc12; result = 87.1%
Compound = CCCNC(=O)Nc1ccc(Oc2ncnc3cc(OC)c(OC)cc23)cc1Cl; result = 100%
Compound = O=C1Nc2ccc(Br)cc2/C1=C/c1cc2c([nH]1)CCCC2; result = 98.7%
Compound = CN(C)S(=O)(=O)c1ccc2c(c1)/C(=C/c1cc3c([nH]1)CCCC3)C(=O)N2; result = 105%
Compound = CC(C)N(CCC(=O)c1ccc2ccccc2c1)Cc1ccccc1; result = 91.1%
Compound = O=C(O)/C=C/c1cc(Br)c(Br)c(Br)c1Br; result = 96.3%
Compound = Nc1nc(Nc2ccc(S(N)(=O)=O)cc2)nn1C(=S)Nc1c(F)cccc1F; result = 105%
Compound = CC(C)(C)c1nc2c3cc[nH]c(=O)c3c3cc(F)ccc3c2[nH]1; result = 107%
Compound = O=C1NC(=O)c2c1c1c3ccccc3[nH]c1n1cncc21; result = 96%
Compound = c1ccc2c(-c3ccncc3)c[nH]c2c1; result = 102%
Compound = FC(F)(F)c1ccc(/C=C/c2nc(COc3ccc(CCCCn4ccnn4)cc3)co2)cc1; result = 94.6%
Compound = Cc1ccc(S(=O)(=O)/C=C/C#N)cc1; result = 107%
Compound = O=C(c1cc2cc(O)ccc2[nH]1)c1cc2cc(O)ccc2[nH]1; result = 91.6%
Compound = N#Cc1cnc2cnc(NCc3cccnc3)cc2c1Nc1ccc(F)c(Cl)c1; result = 95%
Compound = COc1ccc2c(c1)c(C1=C(c3c[nH]c4ccccc34)C(=O)NC1=O)cn2CCCN(C)C; result = 88.8%
Compound = NC(=O)c1cccc(-c2cc(Nc3ccc(OC(F)(F)F)cc3)ncn2)c1; result = 104%
Compound = O=c1c(-c2ccc(F)cc2)c(-c2ccncc2)[nH]n1-c1ccc(Cl)cc1; result = 97.1%

Block 3 — cell line: HaCaT; concentration: 100 µM; time: 36 h; endpoint: viability
Compound = CO/N=C(\C(=O)N[C@@H]1C(=O)N2C(C(=O)O)=C(CSc3nnnn3C)CS[C@H]12)c1csc(N)n1; result = 126%
Compound = COc1cc(CCC(=O)O)ccc1O; result = 90.4%
Compound = COc1cc(Cc2cnc(N)nc2N)cc(OC)c1OC; result = 69.5%
Compound = NCCCC(N)(C(=O)O)C(F)F (centres unmarked); result = 95.7%
Compound = CC(C)[C@H]1CC[C@H](C(=O)N[C@H](Cc2ccccc2)C(=O)O)CC1; result = 111%
Compound = CNCCCN1c2ccccc2CCc2ccccc21; result = 5.02%

Block 4 — technique: PRP chromatography; setting: linear fit, 1 mL; endpoint: logD 1,9-decadiene/water
SMILES = CC(C)C[C@@H]1NC(=O)[C@H](CC(C)C)NC(=O)[C@@H](CC(C)C)NC(=O)[C@H](C(C)C)NC(=O)[C@@H](CCC(=O)N2CCCC2)NC(=O)[C@H](Cc2cscn2)NC(=O)[C@H](C)NC1=O; result = -2.32 log units
SMILES = CC(C)C[C@@H]1NC(=O)[C@@H](C)NC(=O)[C@@H](CC(C)C)NC(=O)[C@H](C)NC(=O)[C@H](C)NC(=O)[C@H](CC(C)C)NC(=O)[C@@H](CC(C)C)NC1=O; result = -1.67 log units
SMILES = CC(C)C[C@@H]1NC(=O)[C@H](CC(C)C)NC(=O)[C@@H](C(C)C)NC(=O)[C@@H](C)NC(=O)[C@H](C(C)C)NC(=O)[C@H](Cc2cscn2)NC(=O)[C@H](C)NC1=O; result = -2.53 log units
SMILES = CC(C)C[C@@H]1NC(=O)[C@H](C)NC(=O)[C@H](Cc2cscn2)NC(=O)[C@H](CC(C)C)NC(=O)[C@H](C(C)C)NC(=O)[C@H](CC(C)C)NC(=O)[C@@H](CC(C)C)NC1=O; result = -1.82 log units
SMILES = CC(C)C[C@@H]1NC(=O)[C@H](CC(C)C)NC(=O)[C@@H](CC(C)C)NC(=O)[C@H](Cc2cscn2)NC(=O)[C@@H](CCC(=O)N2CCCC2)NC(=O)[C@H](Cc2cscn2)NC(=O)[C@H](C)NC1=O; result = -2.53 log units
SMILES = CC(C)C[C@@H]1NC(=O)[C@H](Cc2cscn2)NC(=O)[C@H](C)NC(=O)[C@H](CC(C)C)NC(=O)[C@@H](CCC(=O)N2CCCC2)NC(=O)[C@H](CC(C)C)NC(=O)[C@@H](CC(C)C)NC1=O; result = -1.32 log units

Repeated from above (block 2):
Compound = CCCNC(=O)Nc1ccc(Oc2ncnc3cc(OC)c(OC)cc23)cc1Cl; result = 100%
Compound = O=C1Nc2ccc(Br)cc2/C1=C/c1cc2c([nH]1)CCCC2; result = 98.7%
Compound = CN(C)S(=O)(=O)c1ccc2c(c1)/C(=C/c1cc3c([nH]1)CCCC3)C(=O)N2; result = 105%
Compound = CC(C)N(CCC(=O)c1ccc2ccccc2c1)Cc1ccccc1; result = 91.1%
Compound = O=C(O)/C=C/c1cc(Br)c(Br)c(Br)c1Br; result = 96.3%
